# Experimental data gathered from unrelated publications.
# Every numbered part comes from another study and shows a few of its results, in no order. Several values in a cell are separate wells, animals, samples, runs or records. Substitutions count along the parent as printed.

# Sample 1 — method: RNA Bind-n-Seq; form: RNA; sample: in vitro; concentration: 365 nM; baseline: no-protein control; reading: higher = stronger binding
# Target: RNA binding protein fox-1 homolog 2, RRM domain, GST-SBP tag (RBFOX2, Homo sapiens, UniProt O43251-10, residues 100-194)
# Notes: natural RNA segment, single round, ends assumed
# All sequences stand within: GGGAGUUCUACAGUCCGACGAUC … UGGAAUUCUCGGGUGCCAA
# Construct (chain): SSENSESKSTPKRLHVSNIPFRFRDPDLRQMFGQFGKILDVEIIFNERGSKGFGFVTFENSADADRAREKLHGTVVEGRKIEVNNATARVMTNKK
Sequence,RBNS enrichment (R)
GUGUUGUUAGUGCUGGGCACGGAUUCUGGGACGGUGAGCUGUUGAUUUCCUAACAGAAAGAUAUUUUGAUCUAUUUUCCUAUGGAAUUGUUUCUAUUAUUAUCUUUUAAU,0.428
AGUGUUGAUAGAGCAGCAUAUUAGACAAACACACAGUUGUUAGUUUUCAGACAUUCGCUCACGGACAAUACCAUCUCAGCUUUGCCCUUGCUCCGUGUGUCCACUCCUGC,1.23
UGCCUUCCUUCCUCCCACUUCUUUCUCCAGGCCUGGUUAACUCUUCCGUUGUCAGCUUCUCCCCCUUCAGCCUGUUUCUGCAGCAGCCAGGGUUCUCCCCCCUACACCCU,0.819
AUCACAUAACCUCUAGAGACCAUGCAUCUAGUUAUUGUCAGGAAUAAUUUAAAAGGUUUAGUCGCCAAAAGCAGUUAAGUGGUGCAGUAAGAUAGUUAAGUUAUUCAAAG,0.753
AUUAUUAAUAACAGUCAUGGCACACUGUGUCCUAUCUUAGCAUUUAAAAGUAUGCAAACUCCAGGUCAGCUUCAGUCAUUGAGUGCAGUCAUGACGUCAGACUCCAGAAU,0.262
UUGACAUCUGGAGCUGGAGGCCUGCAUAGGCUGCAUGCAGACACGUGCCAGCGUGAAGCUGGUGAAGACCUGCCAGGAGGCAGCCACAGGCGAGUGCCAGCAGUGUUACU,0.54
GAUAGAAAAAUCCUUGUUUAUUCUUCUUGCUGCCUGGCUUUAAUAAAUAUUUCAGAUGCCUCACAGUAAGUUCACUCCUUUCCAUACUGAGGAAACAAGAAAAGAAGAAG,0.268
GACUGAUUUUUGAAGUAUACCACAGACAAAAAGUUGUUACUAUGGUAAACUAAGCUAGUUUAACACUUGAGCAAAUGCUUAAGAAGGAAUUAAAAAAAAAAAGCUUUGCC,0.707
GCCCCCCUUUGAAGAACUUUCUAUGCAGAAAUAGAUGGUCAGGGUUUCGGAUUUGCAGUGAUGUGUCUUCCGGUGGCAAUGGACAGGGAAGGAGCACCCAUGUCCACUGG,0.736
GCAAGCUCCAGGGAACCCUCUGUGCUUAUGAAGCUCGUCUGGUGGGCAACCCCAGCCCACUGGACAGAGUCCUCAUGGAAAUGCCUGGGAAGCUGAUUUCAUCUAAGGAU,0.248
AUGGAAAGUGAAACCACAUGUGCCGUGACCUUUAGGUUUUAUGAGUAGACAGUGUUCAUUUGAUUUUCUACAGAAAUAAUAUAAAUUAUUCUUUAGGUUUAAAAAAGAGC,0.459
AUCUUCUAAGGAGUUUUAGAUUUAGAUAUUUCUCUCCGCUUUAAAAAAAAAUAAAAUUUGAGUGGAAAUAAUGUUAUUAAACCAUUCUUCUAAUGCUUCACUUUUGAUGA,0.661

# Sample 2 — method: protein binding microarray; form: double-stranded DNA, one strand shown; sample: in vitro; concentration: not given; baseline: not given; reading: higher = stronger binding
# Target: Histone acetyltransferase KAT6A, winged helix 2, GST fusion (KAT6A, Homo sapiens, UniProt Q92794, residues 85-181)
# Notes: 8-mer, flanks averaged, mean of 2 arrays, mostly near background
# Target sequence (chain): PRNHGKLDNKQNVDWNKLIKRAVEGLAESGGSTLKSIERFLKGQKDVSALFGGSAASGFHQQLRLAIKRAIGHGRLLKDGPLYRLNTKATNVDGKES
Sequence,E-score
CGCTGGAA,0.162
CGGTGCGC,0.205
AGTAACCA,-0.101
CAGAATAG,-0.0777
ACGAAGTC,-0.123
CACTGAGA,-0.0625
AAATCCAC,0.0306
AATGCTAT,0.0257
GATCCCAA,0.0262
AGAACCCC,-0.297
GGTCCCAC,0.0546
CCTGAGCA,0.125
ACGGAGAA,-0.0339
ACTACTGA,0.0161
ATACATTC,-0.166
GCAGACCC,0.077
ACTGCGAG,-0.0501
CCTCGAAG,0.145
CAGCTTTC,0.0254

# Sample 3 — target: CCNA1, cyclin fold, Cln2 fusion (human); method: yeast growth competition, sequencing; sample: yeast; notes: weak parent motif; baseline: not given; reading: higher = stronger binding
# Starting sequence: INSM1 docking peptide (human); PKAIRKLHFEDEV
Variant,normalised enrichment score
PKAIWKLHFEDEV [R5W],-0.0798
PKAIRKMHFEDEV [L7M],0.0884
PKAIRKLCFEDEV [H8C],1.05
PKRIRKLHFEDEV [A3R],0.498
PKNIRKLHFEDEV [A3N],-0.0154
PKAIRKLGFEDEV [H8G],-0.119
PKAIRKLHTEDEV [F9T],0.0402
PKAIRKLHFWDEV [E10W],0.3
PKAIRILHFEDEV [K6I],0.284
PKAIRKLHFEDIV [E12I],0.529
PNAIRKLHFEDEV [K2N],0.388
PKAIRKPHFEDEV [L7P],-0.0946
PKKIRKLHFEDEV [A3K],0.496
PKAIRQLHFEDEV [K6Q],0.629
PKLIRKLHFEDEV [A3L],0.0341
PKAMRKLHFEDEV [I4M],1.37
PKAIRKLHFETEV [D11T],0.0581
PKAIRKRHFEDEV [L7R],0.639
PKAIRKLHFYDEV [E10Y],0.29
PKAIRKLHFEREV [D11R],0.386
PKAIEKLHFEDEV [R5E],-0.14
PKAITKLHFEDEV [R5T],0.152
PKAIRKLFFEDEV [H8F],0.0579
PKAIRKLHFEDDV [E12D],0.855
PKAQRKLHFEDEV [I4Q],1.67

# Sample 4 — method: protein-binding microarray; form: double-stranded DNA, one strand shown; sample: in vitro; concentration: 250 nM; notes: 60-bp whole probe; added: salmon DNA 0.4 mg/ml; baseline: random background probes; reading: higher = stronger binding; all sequences stand within: GCCTAGCAC … GTCTTGATTCGCTTGACGCTGCTG
# Target: Interferon regulatory factor 7, full length, phosphomimetic (IRF7, Homo sapiens, UniProt Q92985, residues 1-503, S101K/S471D/S472D/S475D/S476D/S477D/S483D/S484D/S487D)
# Target sequence (chain): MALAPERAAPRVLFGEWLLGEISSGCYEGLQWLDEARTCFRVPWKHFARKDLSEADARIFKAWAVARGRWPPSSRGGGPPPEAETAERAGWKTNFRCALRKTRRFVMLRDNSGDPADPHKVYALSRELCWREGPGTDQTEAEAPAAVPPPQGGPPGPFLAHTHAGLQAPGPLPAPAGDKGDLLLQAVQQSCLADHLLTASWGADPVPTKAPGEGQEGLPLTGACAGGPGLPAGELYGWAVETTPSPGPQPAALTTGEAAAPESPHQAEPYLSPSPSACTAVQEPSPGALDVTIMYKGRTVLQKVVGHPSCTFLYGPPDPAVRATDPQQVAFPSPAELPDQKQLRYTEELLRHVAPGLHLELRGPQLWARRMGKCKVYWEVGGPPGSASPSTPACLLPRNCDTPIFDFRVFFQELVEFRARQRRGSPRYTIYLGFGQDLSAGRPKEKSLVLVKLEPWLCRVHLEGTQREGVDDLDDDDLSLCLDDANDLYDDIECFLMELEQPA
Sequence,log fluorescence
GACGAACTGGGGTCTGGAGACGTGCTA,-0.655 z-score
TTAGAACTGGACTTTCGGTTAGTGCTA,0.982 z-score
GACGGAATGCTTATCCTGACGTGCTAG,-0.763 z-score
TCATATATCTTATCCTAACTGTGCTAG,1.21 z-score
GACGGATTGGACTATCGGGACGTGCTA,-0.411 z-score
TTTGGTATCGGACTGGGTTAGTGCTAG,0.189 z-score
TCATCTCCCAGACTGGAGTGGTGCTAG,0.224 z-score
TTAGATCTCAGTCTCGCTTAGTGCTAG,0.912 z-score
GGTCTTCTGGGCTGTTTAGTCGTGCTA,-0.436 z-score
TCACTTTTATCCCTGACACTGTGCTAG,0.737 z-score
GACGGTATCGGACTGGGTACGTGCTAG,-0.193 z-score
GACGGTATCGAATTTCGGGACGTGCTA,0.473 z-score
GACGAAATGAGTCTCGAGACGTGCTAG,0.648 z-score
TTAGGTTTCCTACTGCTGTAGTGCTAG,1.51 z-score
TCACTGCTCCTCTTTTTTACTGTGCTA,-0.366 z-score
GACGATCTCAGTTTCGAGTCGTGCTAG,7.62 z-score
GACGGACTGGGTCTCGGGAAGTGCTAG,-0.325 z-score
TTCCCTCTGCTCCTCTTTTTGTGCTAG,1.17 z-score
TTAGAACTGGGGTTCCGATTAGTGCTA,0.18 z-score
TCATCTCTAATTTTGAGACTGTGCTAG,0.457 z-score
TTAGGACTGCTGCTGCTTTAGTGCTAG,-0.648 z-score
GACGATATCAGTCTCGTGACGTGCTAG,0.141 z-score
TTAGGTACCGACTTTCGGTTAGTGCTA,2.37 z-score
TCATTAATGCTTCTGGGACTGTGCTAG,0.243 z-score
GTAGGTTCCGGTTTCGGTTAGTGCTAG,10.7 z-score

# Sample 5 — method: universal PBM; form: double-stranded DNA, one strand shown; sample: in vitro; concentration: not given; reading: higher = stronger binding
# Target: Sal-like protein 4, full length isoform B (SALL4, Homo sapiens, UniProt Q9UJQ4-2, residues 1-616)
# Notes: 8-mer, flanks averaged, mean of replicates
# Target sequence (chain): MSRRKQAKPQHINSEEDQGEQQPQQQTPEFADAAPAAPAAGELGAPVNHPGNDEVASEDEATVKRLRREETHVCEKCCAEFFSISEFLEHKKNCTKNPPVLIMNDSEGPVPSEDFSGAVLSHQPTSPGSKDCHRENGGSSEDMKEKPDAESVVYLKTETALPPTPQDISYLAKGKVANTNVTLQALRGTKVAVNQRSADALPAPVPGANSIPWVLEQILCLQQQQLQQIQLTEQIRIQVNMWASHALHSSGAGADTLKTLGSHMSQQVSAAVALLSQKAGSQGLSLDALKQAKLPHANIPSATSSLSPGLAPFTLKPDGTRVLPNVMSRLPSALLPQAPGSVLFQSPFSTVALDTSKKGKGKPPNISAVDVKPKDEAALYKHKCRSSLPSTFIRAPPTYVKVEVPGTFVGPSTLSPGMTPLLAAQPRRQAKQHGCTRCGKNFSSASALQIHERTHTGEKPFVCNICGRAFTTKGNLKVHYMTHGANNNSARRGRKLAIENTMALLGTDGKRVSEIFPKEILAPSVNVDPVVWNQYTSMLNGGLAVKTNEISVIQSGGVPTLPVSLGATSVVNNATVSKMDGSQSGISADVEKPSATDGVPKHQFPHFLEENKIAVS
Sequence,E-score
CTAAATAG,0.138
TGGTAAAA,0.209
ATATGGGG,0.116
CTTGACCC,-0.269
TCGTCGCA,-0.222
CTGGCCAA,-0.184
CTATCCAC,-0.014
ATGACCCA,0.148
ACATAGGA,0.0526
TACGGCGA,-0.0822
GACAACAC,-0.006
ATCTCGGG,-0.159
ATCGATGC,0.0519
GTTGCCAA,-0.0147
ATAGAGGC,-0.0158
ATTTTGAC,0.228
CTTTATCC,0.0101
ACGAGTAT,0.134
GACATGGC,-0.132
CATCACCA,0.101
ATCACGTG,-0.0283
ACTGTGAG,-0.0638
GAGTCTTA,0.0282
TACGGTGA,0.122
CTTCTTAC,-0.0787

# Single results of other studies
Molecule,target,test,system,conditions,scale,quantity,result
"PhoQ, residues 284 288 289 292 302 303 SMMNNA","PhoP, residues 12 14 15 18 19 LWHSL (Escherichia coli, UniProt P23836)","Sort-seq, item: YFP reporter",E. coli,"PhoQ-PhoP variant library, added: 10 µM Mg2+","baseline: high Mg2+ state, higher = stronger signaling",fold induction,12.9 and 17

# Repeated from above (sample 4):
Sequence,log fluorescence
TTAGAACTGGACTTTCGGTTAGTGCTA,0.982 z-score
GACGGAATGCTTATCCTGACGTGCTAG,-0.763 z-score
TCATATATCTTATCCTAACTGTGCTAG,1.21 z-score
GACGGATTGGACTATCGGGACGTGCTA,-0.411 z-score
TTTGGTATCGGACTGGGTTAGTGCTAG,0.189 z-score
TCATCTCCCAGACTGGAGTGGTGCTAG,0.224 z-score
TTAGATCTCAGTCTCGCTTAGTGCTAG,0.912 z-score
GGTCTTCTGGGCTGTTTAGTCGTGCTA,-0.436 z-score
TCACTTTTATCCCTGACACTGTGCTAG,0.737 z-score
GACGGTATCGGACTGGGTACGTGCTAG,-0.193 z-score
GACGGTATCGAATTTCGGGACGTGCTA,0.473 z-score
GACGAAATGAGTCTCGAGACGTGCTAG,0.648 z-score
TTAGGTTTCCTACTGCTGTAGTGCTAG,1.51 z-score
TCACTGCTCCTCTTTTTTACTGTGCTA,-0.366 z-score
GACGATCTCAGTTTCGAGTCGTGCTAG,7.62 z-score
GACGGACTGGGTCTCGGGAAGTGCTAG,-0.325 z-score
